Measured values from different studies.
Numbered parts are unrelated; each lists some results of a single study. Changes are numbered by the printed parent chain.

Set 1
Target: RNA binding protein fox-1 homolog 2, RRM domain, GST-SBP tag (RBFOX2, Homo sapiens, UniProt O43251-10, residues 100-194)
Method: RNA Bind-n-Seq
Molecule type: RNA
Matrix: in vitro
Tested at: 365 nM
Setting: natural RNA segment, single round, ends assumed
Relative to: no-protein control
Direction: higher = stronger binding
Constant ends, left off below: GGGAGUUCUACAGUCCGACGAUC … UGGAAUUCUCGGGUGCCAA
Residues (chain): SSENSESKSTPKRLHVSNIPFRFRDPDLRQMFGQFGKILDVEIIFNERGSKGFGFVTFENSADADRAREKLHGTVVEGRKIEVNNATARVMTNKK
Strand | RBNS enrichment (R)
CUUUUCUGUGGAUUCUCUCAGUGGACCCACACCAUCUCUAUGUCUCUCCACUCUCCUGCCUUCAGCCAUAGCAAAGAAUCCUUCCAAAAUCAAACUCUUCACUUUUUUGA | 0.702
AAGUCACCAGGACUUGGGGUCAGGAACAGUGGCUGGGUGGGCCCAGAACUGCCCCCACUGUCCCCCUACCCACCGAUGGAGCCCCCAGAUAGAGCUGGGUGGCCUGUUUC | 0.333
ACAUAACCAAGAAAGGAUUUUGACUUUGUCACAGUGACUAUUUAAAAUAAUCUAUUCGAAGUCCAAACCAAACACAAAGCCUGUGAUAUUUUAGGUUAUUAAGGUAACUG | 0.321
UUACCUCGUGCAUUGUAUAAUUUGAUGUAAAAGAAAUAGUUACCAAUGCUAGCUUGUGUGGUCUUCCAUGAUUUAUUUGUGUUUUGUGAAUUUUCAAUUUAUGGUGAUGA | 1.18
CGGUUUUUGUAUAUAAAAUUCAUGUUUCCAAUCUCUCUCUCCCUGAUCGGUGACAGUCACUAGCUUAUCUUGAACAGAUAUUUAAUUUUGCUAACACUCAGCUCUGCCCU | 0.53
UCAUCUUCACCUGAUAAAGAUGGUUGCUGGUUUGGAAUCUACACCUGCACACUUUUACUUCUUCCGUCCUUCCUGUCUUUCAAAAUAAAAUCUUAUUUUGGCAAAGGCAA | 0.351
CCUAAGAAUAUAUACUAUGGAGUCUAUGGACCACUGUAGAGAAGUUUUUAGUCUAGCCUGUUUGAUUACUUGUAAAUCUCUGCUAGAAGGAGAGAAUUUUCCAGACAACU | 0.344
GAAGCACUGCAGUGUGCAGAGGCUCUCCUUGACCUUUCUACUUUUGACACGGGUCCCUGUUCGAGAAUUUCCAGUUAGCCCCAGAAGAGACUGGUUCUCCUGACCCCCAC | 0.523
AAAUAUUAUACUUUAUAGCAGUGGAUUACCAACACCUUGACUUCUUUGUUACAGUGCUAACAUCUUUUUUUUUGUGCAGGUAUCCAUGAUUAUUAAGCAGGGUGGAAGUU | 0.408
CUGCAGUCUGCGCCGUUUGAAAACCCUGAGAAAGAGAUGCCACCUCAACUUGAAUCAUGACAGCCCAUCGCUCAGUCUCACCCUAAACUCAUGGAGCUUGUUUCAGCUCC | 0.5
AAUCGGAAACCUGUGAGUCAGAGUCAGAGAAACUUACCCAAGCAACGUAAUUCCUGUUUUCAUGGGUCCUGUAGAUGUUUGAGUCAGGAAGGUAAGGCGGGGAGUGACUG | 0.764
CUAAUUCUGCCCCUGUUGGUGCAGAUGGCUGUGGGCGGCUCACUUGACCUUUUAGAGUCUGCAUACCCACCUGUAUAACAAGGUGGAUUGAAUGAGACAAUGCCCACGAA | 0.27

Set 2
Target: Histone acetyltransferase KAT6A, winged helix 2, GST fusion (KAT6A, Homo sapiens, UniProt Q92794, residues 85-181)
Method: protein binding microarray
Molecule type: double-stranded DNA, one strand shown
Matrix: in vitro
Tested at: not given
Setting: 8-mer, flanks averaged, mean of 2 arrays, mostly near background
Relative to: not given
Direction: higher = stronger binding
Target sequence (chain): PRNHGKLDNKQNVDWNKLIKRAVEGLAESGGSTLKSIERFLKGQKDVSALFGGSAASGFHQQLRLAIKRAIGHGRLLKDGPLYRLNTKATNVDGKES
Strand | E-score
ACTGTACT | -0.283
ACCCCATA | -0.0596
CTACCTGA | -0.0569
CCTCGTAA | 0.0763
CTAGGGGA | -0.169
GGGGGAAC | -0.062
CATCATCC | -0.107
AACCCAAA | 0.16
ACGTTTTA | -0.155
ATAGTTGA | -0.0309
CGACCCTC | 0.16
ATCCAATA | 0.0745
ACACAACT | -0.17
ATATAGTC | 0.0514
GACTAAGC | 0.03
AGATTAGG | -0.105
GCCGTTCA | -0.0274
CAATACGG | -0.113
AGTACTTA | -0.169
GATGCTTA | -0.16

Set 3
Target: CCND1, cyclin fold, Cln2 fusion (human)
Method: yeast growth competition, sequencing
Matrix: yeast
Setting: strong parent motif
Relative to: not given
Direction: higher = stronger binding
Starting sequence: CDKN1A docking peptide (human); SKACRRLFGPVDS; partner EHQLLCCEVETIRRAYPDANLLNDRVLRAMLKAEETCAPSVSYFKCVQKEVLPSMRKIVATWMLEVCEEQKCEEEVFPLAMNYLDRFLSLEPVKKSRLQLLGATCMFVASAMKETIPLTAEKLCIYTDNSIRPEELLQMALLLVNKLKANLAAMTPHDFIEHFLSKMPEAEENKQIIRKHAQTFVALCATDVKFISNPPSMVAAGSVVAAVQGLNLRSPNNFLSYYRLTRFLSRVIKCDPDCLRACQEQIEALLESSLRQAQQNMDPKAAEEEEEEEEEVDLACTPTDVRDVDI
Substitution | normalised enrichment score
D12N | 2.07
F8R | -0.101
D12S | 1.76
F8P | 0.0554
K2W | 0.87
G9K | 1.21
D12K | 1.52
G9M | 2.69
C4K | 0.535
S13A | 2.77
V11R | 1.96
R5S | -0.0979
F8H | 0.0364
G9P | 3.55
G9C | 2.76
P10C | 1.41
P10S | 2.34
D12R | 0.956
G9E | 3.56
F8W | 0.789
P10F | 0.911
D12P | 2.19
P10L | 0.705
K2P | 2.93
V11W | 2.74

Set 4
Target: Hepatocyte nuclear factor 3-alpha (Foxa1, Mus musculus, UniProt P35582, residues 1-468, full length assumed)
Method: EMSA with sequencing
Molecule type: double-stranded DNA, one strand shown
Matrix: in vitro
Tested at: 10 and 20 nM
Setting: whole designed probe, mean of two concentrations, ends assumed
Relative to: negative control set to 0
Direction: higher = stronger binding
Constant ends, left off below: GTGAGCGGTGCCCATTGATGGGGAAC … TTTCACTGGGATCGTGGGGAC
Construct (chain): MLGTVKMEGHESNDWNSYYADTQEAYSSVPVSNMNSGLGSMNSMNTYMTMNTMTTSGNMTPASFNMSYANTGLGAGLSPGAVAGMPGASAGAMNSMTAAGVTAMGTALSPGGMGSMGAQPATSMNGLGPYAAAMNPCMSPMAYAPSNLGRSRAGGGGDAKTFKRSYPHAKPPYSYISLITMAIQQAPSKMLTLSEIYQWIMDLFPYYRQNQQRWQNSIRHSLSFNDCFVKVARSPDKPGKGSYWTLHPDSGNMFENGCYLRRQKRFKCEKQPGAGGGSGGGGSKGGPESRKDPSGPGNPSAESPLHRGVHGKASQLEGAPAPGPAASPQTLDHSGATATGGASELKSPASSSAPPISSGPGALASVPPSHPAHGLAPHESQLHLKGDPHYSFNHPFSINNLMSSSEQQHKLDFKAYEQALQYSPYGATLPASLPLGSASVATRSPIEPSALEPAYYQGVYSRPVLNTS
Strand | normalised bound fraction [ratio]
GTCCTGATGTAGGGGACCATAAACTATGGTGGGTAACTGGCCCTTCAAAATAGCCATCAAATGGCAACACTTGCCTAAACCTTGGAGGGCATTGTAAACAGGGATCTTCTGGGTGTCACCTCAAGAATTTAAGACTTCTAAACAGGGAATATTGATCCCGCCTAAAGGGAAGAATCTTATCAGATGAGAAAAG | 0.0148
CTCATTCCTTGCTTCCGCCAATAATCTGACTAGTAAAGAAGTCACTGCATGCCACAAATTGTCAGTGCTGACTTCCTCAACAAGGAAGTATAAGTAAATAAATATTAATATATATGGAGTGACTCAGCAAATTCCATCTTGAGAATACCAACTCCTGATGCCAACTGATTGTCAGTCATGGCTACAACAGGAG | 0.407
AATCCAGCTACCTATCTTCAGTTCCTTGGCCTTCAGCTGGCAGTGAAACAGACACATCAGCTTTAAGACTGGCAGCCAAATAGTTAACGATCTGTAAACATACAATTACGCAAGTAGAGAGTTCCTGTTCAAACAGACTGGATGAAAGCCCTTCCATAAAGAACCCTTTAGGTGATGATGCTAAAATTATTTT | 0.293
TAAACATGCTATGAACCAGTGCTAAGTTATACACCAGGCTGGCTTCAAAAATGATTATCAAACTGTGTAGGGATAACTGAAACCAGTAACAGAGTAAACACTGTGTTAGGATAATAGGGTGCTGACAGGGCGAATGCCTTCCAGCTGAATCATTTTTCCATTCCTGGAATGTTTTGAAATGGAGAATTAAGCA | 0.3
ATCTTCCCCCTCTTCCTTGCCCCACCAGCTCACCTACGGGGGTTATTTGCAGATAGGAAAATAAATAAAGCCGGCATTCGTTAACGCAGTTCACGCGCATACTGCTGTTTGCTCTGGATCTAACATGGTCCTTTGGCGACGCCAGGCTCCGGGAGAGCAAAGCACCGTGTCAGGGCCATGATCCGGGCTCGCC | 0.342
TCTATTCAACAAATTAATTGATGTCTAGAAAAATTAATAAGGAATATTCAAGAAACGGTAACTTTTTAACCTTGCAAGAATATAAAAACAAAGTAAACATCAACGAGAAATTTATTTGTAAATGAGACACCCAGGTGTATTCATTTGCATTTTATTAATGGAAATTTTTTCCTGAAATGACCATGAAACTTGA | 0.335
TTCTGGTAACTCCAACTTTTGGCTCATTTGTGGGTCAGACAGATCTGAGAAGCTTGGTTTTTTTTTACTCTGTCTCAGGTACTTTATATTTAGTGTTTACATTCCTAGCCAGAGAAGCATTTATGTAAACACTCTCTATATTTAATGACTCAGTTTAAGAAAATGCTTACAATAATTGAGGTCTCCTTGTTTC | 0.46
AAATGTAAAACTGCTGAAAAGATAAGAAGAAATGAATAAATCTATAATTAAGACGGAAATCTTTAATAGGCCATAGGCCTCAGGAGTCCTCAAAGTAAACAAAAAATGCACAAGCATGCTTATCTTAAAGGATTAAATAGGTATTTTTAAAATATTGATTTAATACACATGTAGAACTATTAAGTAACAAAAT | 0.512

Set 5
Target: UBE2I UBC core domain (UniProt P63279)
Method: yeast two-hybrid
Matrix: yeast
Setting: mostly zero background
Relative to: not given
Direction: higher = stronger interaction
B1: RBCK1 RING domain (UniProt Q9BYM8); chain SLVLNTEPAECPVCYSVLAPGEAVVLRECLHTFCRECLQGTIRNSQEAEVSCPFIDNTYSCSGKLLEREIK
B2: DZIP3 RING domain (UniProt Q86Y13); chain PDEEEEEEEPCVICHENLSPENLSVLPCAHKFHAQCIRPWLMQQGTCPTCRLHVLLPEEFP
B3: MDM4 RING domain (UniProt O15151); chain MEDCQNLLKPCSLCEKRPRDGNIIHGRTGHLVTCFHCARRLKKAGASCPICKKEIQLVIKVF
B4: TRIM62 RING domain (UniProt Q9BVG3); chain MACSLKDELLCSICLSIYQDPVSLGCEHYFCRRCITEHWVRQEAQGARDCPECRRTFAEPALAP
B5: RNF19A RING domain (UniProt Q9NV58); chain ISKQIGDFIECPLCLLRHSKDRFPDIMTCHHRSCVDCLRQYLRIEISESRVNISCPECTERFNPHDIR
Sequence | lacZ reporter activity
GSDDEEIPFKCFICRQSFQNPVVTKCRHYFCESCALQHFRTTPRCYVCDQQTNGVFNPA (RNF113A RING domain (UniProt O15541)) | 0
KETIKKTTKPCPRCHVPVEKNGGCMHMKCPQPQCRLEWCWNCGCEWNRVCMG (PRKN RING domain (UniProt O60260)) | 0
AMYLQENGIDCPKCKFSYALARGGCMHFHCTQCRHQFCSGCYNAFYAKNKC (RNF31 RING domain (UniProt Q96EP0)) | 0
PEDRESLKSACVVCLSSFKSCVFLECGHVCSCTECYRALPEPKKCPICRQAITRVIPLY (MUL1 RING domain (UniProt Q969V5)) | 0
AVPSGLEENLCKICMDSPIDCVLLECGHMVTCTKCGKRMNECPICRQYVIRAVHVF (RFFL RING domain (UniProt Q8WZ73)) | 0
B1 (RBCK1 RING domain) | 0
KLRKLKEAMLCMVCCEEEINSTFCPCGHTVCCESCAAQLQSCPVCRSRVEHVQHVY (MYLIP RING domain (UniProt Q8WY64)) | 0
B2 (DZIP3 RING domain) | 0
B3 (MDM4 RING domain) | 0
B4 (TRIM62 RING domain) | 0
B5 (RNF19A RING domain) | 0

Excerpt of the above (set 1):
Strand | RBNS enrichment (R)
UUACCUCGUGCAUUGUAUAAUUUGAUGUAAAAGAAAUAGUUACCAAUGCUAGCUUGUGUGGUCUUCCAUGAUUUAUUUGUGUUUUGUGAAUUUUCAAUUUAUGGUGAUGA | 1.18
CGGUUUUUGUAUAUAAAAUUCAUGUUUCCAAUCUCUCUCUCCCUGAUCGGUGACAGUCACUAGCUUAUCUUGAACAGAUAUUUAAUUUUGCUAACACUCAGCUCUGCCCU | 0.53
GAAGCACUGCAGUGUGCAGAGGCUCUCCUUGACCUUUCUACUUUUGACACGGGUCCCUGUUCGAGAAUUUCCAGUUAGCCCCAGAAGAGACUGGUUCUCCUGACCCCCAC | 0.523
UCAUCUUCACCUGAUAAAGAUGGUUGCUGGUUUGGAAUCUACACCUGCACACUUUUACUUCUUCCGUCCUUCCUGUCUUUCAAAAUAAAAUCUUAUUUUGGCAAAGGCAA | 0.351
CUGCAGUCUGCGCCGUUUGAAAACCCUGAGAAAGAGAUGCCACCUCAACUUGAAUCAUGACAGCCCAUCGCUCAGUCUCACCCUAAACUCAUGGAGCUUGUUUCAGCUCC | 0.5
